{"data": "Experimental data of several laboratories", "method": "steady-state kinetics", "B1": "protein (UniProt A0A4Y6I1F8); chain MGSEVVSKKHEFGALEVEGIDFRASVAALGSTKKLVLGGAGFRGLEINGNLVKFTAIGIYVEEAIIPHLSPKLGGKTVEELCANELLFEEVLSAPFDKLIRVVFLLPLTGPQYSEKVVERIGLLPNPGLKEESIKQFLEIFKAENFPPRTSLVCSFTEDGLKIAFMKGPDFPEESDAVIEDKYFARAFLATIIAKDGVSPMAKLSFAERVSKYL", "B2": "TcC (Trypanosoma cruzi, UniProt Q4DGA3); chain MPREYEFAEKILFTEEEIRTRIMEVAKRIADDYKGKGLRPYVNPLVLISVLKGSFMFTADLCRALSDFNVPVRMEFICVSSYGEGVTSSGQVRMLLDTRHSIEGHHVLIVEDIVDTALTLNYLYHMYFTRRPASLKTVVLLDKREGRRVPFSADYVVANIPNAFVIGYGLDYDDTYRELRDIVVLRPEVYAEREAARQKKQRAIGSADTDRDAKREFHSKY", "B3": "sacB Y247F (Priestia megaterium, UniProt D5DC07); chain KGNDSKDFNNSYGISHITRDNMVKIPQQQNSDQFKVPAFDESTIKNIASAKGKNASGNTIDLDVWDSWPLQNADGTVATYHGYQIVFALAGDPKDSNDTSVYLFYKKAGDKSIDSWKNAGRVFKDSDKFVPNDPHLKNQTQEWSGSGTLTKDGKVRLFYTDYSGKQYGKQTLTTAQVNMSQPNDNTLKVDGVEDYKSIFDGDGKIYQTVQQFIDEGGFDTGDNHTLRDPHYIEDNGHKYLVFEANTGTEDGYQGEDSLYNRAYYGGNNPFFQSEKKKLLEGSNKEKASLANGALGIIELNDDYTLKKVMKPLITSNTVTDEIERANIFKKDGKWYLFTDSRGSKMTIDGIGQDDVYMLGYVSNTLTGKYKPLNDTGLVLHMDLDPNDKTFTYSHFAVPQTKGDNVVITSYMTNRGFYEDNHSTFAPSFLVNIDGSKTSVVKDRVLEQGQLTVDED", "B4": "enzyme G29Y (Thermobifida fusca, UniProt Q47RA9); chain MIMIMASKSSPHDLPDVSGLSIAVLGGTYDQGRGLARRFAMAGHEVILGSRSAERAQAVAAELGEGLPVRGMDNAGAAEAGDVVIVAVPWDGHRALLESLKDVLAGKIVVDCVNPLGFDKRGAYALPVEEGSAAEQAAAILPDSRVVAAFHHVSAVLLLDPEVEKVDLDVLVLGDDREATDVVRALAARIPGVRGVYGGRLRNAHQVEAFTANLISINRRYKAHAGIRITDI", "B5": "mtnK (Escherichia coli, UniProt B7MMH5); chain MTDSIPSGYKPLTCDTLPGYLSSRLTPSCEPGGLPEEWKVSEVGDGNLNMVFIVEGTHKTIIVKQALPWLRAGGEGWPLSLSRAGFEYNVLCQEAKYAGHTLIPQVYFYDPEMALFAMEYLTPHVILRKELINGKKFPKLAEDIGRFLAQTLFNTSDIGMSAEQKKALTAEFALNHELCKITEDLIFTEPYYNAERNNWTSPELDDAVHKAWADVEMIQVAMRYKYKFMTEAQALLHGDLHSGSIMVTDTDTKVIDPEFGFMGPMAFDIGNYIGNLLLAYFSRPGWDANEQRRADYQEWLLQQIVQTWSVFTREFRQLWDNKTQGDAWSTEMYQQNRAALEDAQDQFFATLLEDSLVNAGMEMNRRIIGFAGVAELKQIENTELRAGCERRALTMARDLIVNARQFKNMDSVIQSAKVK", "B6": "GTPBP3 P257H (Homo sapiens, UniProt Q969Y2); chain TRRSSGAPAPGSGATIFALSSGQGRCGIAVIRTSGPASGHALRILTAPRDLPLARHASLRLLSDPRSGEPLDRALVLWFPGPQSFTGEDCVEFHVHGGPAVVSGVLQALGSVPGLRPAEAGEFTRRAFANGKLNLTEVEGLADLIHAETEAQRRQALRQLDGELGHLCRGWAETLTKALAHVEAYIDFGEDDNLEEGVLEQADIEVRALQVALGAHLRDARRGQRLRSGVHVVVTGHPNAGKSSLVNLLSRKPVSIVSPEPGTTRDVLETPVDLAGFPVLLSDTAGLREGVGPVEQEGVRRARERLEQADLILAMLDASDLASPSSCNFLATVVASVGAQSPSDSSQRLLLVLNKSDLLSPEGPGPGPDLPPHLLLSCLTGEGLDGLLEALRKELAAVCGDPSTDPPLLTRARHQHHLQGCLDALGHYKQSKDLALAAEALRVARGHLTRLTGGGGTEEILDIIFQDFCVGK", "B7": "enzyme (Enterococcus faecalis, UniProt Q836D9); chain MKKILTYGTFDLLHYGHINLLKKAKQQGDYLIVGLSTDAFNLEKKKQSYFSYEKRKQLLEAIRYVDLVIPETSWKQKVSDIAEFKIDTLVMGDDWQGAFDFLEVETTAKVLYLPRTPEVSTTQIKKELYYSE", "B8": "ycjS (Escherichia coli, UniProt P77503); chain MKSAMTSSPLRVAIIGAGQVADKVHASYYCTRNDLELVAVCDSRLSQAQALAEKYGNASVWDDPQAMLLAVKPDVVSVCSPNRFHYEHTLMALEAGCHVMCEKPPAMTPEQAREMCDTARKLGKVLAYDFHHRFALDTQQLREQVTNGVLGEIYVTTARALRRCGVPGWGVFTNKELQGGGPLIDIGIHMLDAAMYVLGFPAVKSVNAHSFQKIGTQKSCGQFGEWDPATYSVEDSLFGTIEFHNGGILWLETSFALNIREQSIMNVSFCGDKAGATLFPAHIYTDNNGELMTLMQREIADDNRHLRSMEAFINHVQGKPVMIADAEQGYIIQQLVAALYQSAETGTRVEL", "B9": "putA E1012A (Rhodobacter capsulatus, UniProt D5AN87); chain MTDLSALGPKAKFAPEAEVLQALVAQAALPQPQLDRIAARGADLVARIRAEAKPSLMEHFLAQYGLSTREGVALMCLAEAMLRVPDTATIDALIEDKIAPSDWGKHLGTAASSLVNASTWALMLTGKVLDDGAGGIAGTLRGAMRRLGEPVIRAAVGQAMREMGRQFVLGETIEKALERAEKREAEGYTFSYDMLGEAALTAADAERYRLAYAQAITAIGKAATRGSIAANPGISIKLSALHPRYEVAQEARVMAELVPVVRDLARAAARAGIALHIDAEEQDRLALSLRVMAAVIADPETAGWEGFGAVVQAYGKRAGAAIDALAAMARAAGRRINIRLVKGAYWDAEMKRAQVEGHPGFPLFTSKTGTDVAYICLAAKLFGLNDCIYPQFATHNAHTVAAVLEMAAGRPFEFQRLHGMGARLHDIVLRETGGRCRIYAPVGAHRDLLAYLVRRLLENGANSSFVNQIVNESVPPAEVAACPFAALPTARAPRGLLAPADLFGAGRVNAQGFDLSDPEVLARIEAARDVTLPDAAPIVAGPVSGTLRPVRNPATGAVVAQVTEADAATVALALDAAQVWSAPAATRAAVLCRAADLYEENFGPIFAALAQEAGKTLGDAVSELREAVDFLRYYAAEGAADTRPPRGAVVAISPWNFPLAIFTGQVAAALMAGNAVLAKPAEQTPIIAALAVRLLHQAGVPETALQLLPGDGPTVGAALTRDPRVAGVVFTGSTETAQIIARAMAAHLAPGTPLIAETGGLNAMVVDSTALPEQAVRDVVASAFRSAGQRCSALRCLYVQDDIAPHLIGMLKGAMEELVSGDPARLSTDVGPVIDAEAKAGIETYLAANKARILHRSTAPEGGHFVAPALLQVGGIADLEREIFGPVLHLATFAAEDLPAVIAAINARGYGLTFGLHSRIDARVETVAETIRAGNIYVNRNQIGAVVGSQPFGGEGLSGTGPKAGGPLYLNRFYAPEPVVAVGGWTEAATPILPEARETQLDEIFLPGPTGALNRLTRHQRGPILCLGPGAEAASAQAAAVVALGGQAVQASGAVSPKALETLTPLAGVLWWGAAEMGRAYAQALAVRPGPLVPLITAKPDLAHVAHERHLCVDTTAAGGNAALLAG", "B10": "ASRGL1 (Homo sapiens, UniProt Q7L266); chain 1 MNPIVVVHGGGAGPISKDRKERVHQGMVRAATVGYGILREGGSAVDAVEGAVVALEDDPEFNAGCGSVLNTNGEVEMDASIMDGKDLSAGAVSAVQCIANPIKLARLVMEKTPHCFLTDQGAAQFAAAMGVPEIPGEKLVTERNKKRLEKEKHEKGAQKTDCQKNLG; chain 2 TVGAVALDCKGNVAYATSTGGIVNKMVGRVGDSPCLGAGGYADNDIGAVSTTGHGESILKVNLARLTLFHIEQGKTVEEAADLSLGYMKSRVKGLGGLIVVSKTGDWVAKWTSTSMPWAAAKDGKLHFGIDPDDTTITDLP", "note": "Lines come from different studies, so protocols differ. Numbers after ± are the reported error.", "chain of UniProt Q6ZQB6 (whole entry, looked up)": "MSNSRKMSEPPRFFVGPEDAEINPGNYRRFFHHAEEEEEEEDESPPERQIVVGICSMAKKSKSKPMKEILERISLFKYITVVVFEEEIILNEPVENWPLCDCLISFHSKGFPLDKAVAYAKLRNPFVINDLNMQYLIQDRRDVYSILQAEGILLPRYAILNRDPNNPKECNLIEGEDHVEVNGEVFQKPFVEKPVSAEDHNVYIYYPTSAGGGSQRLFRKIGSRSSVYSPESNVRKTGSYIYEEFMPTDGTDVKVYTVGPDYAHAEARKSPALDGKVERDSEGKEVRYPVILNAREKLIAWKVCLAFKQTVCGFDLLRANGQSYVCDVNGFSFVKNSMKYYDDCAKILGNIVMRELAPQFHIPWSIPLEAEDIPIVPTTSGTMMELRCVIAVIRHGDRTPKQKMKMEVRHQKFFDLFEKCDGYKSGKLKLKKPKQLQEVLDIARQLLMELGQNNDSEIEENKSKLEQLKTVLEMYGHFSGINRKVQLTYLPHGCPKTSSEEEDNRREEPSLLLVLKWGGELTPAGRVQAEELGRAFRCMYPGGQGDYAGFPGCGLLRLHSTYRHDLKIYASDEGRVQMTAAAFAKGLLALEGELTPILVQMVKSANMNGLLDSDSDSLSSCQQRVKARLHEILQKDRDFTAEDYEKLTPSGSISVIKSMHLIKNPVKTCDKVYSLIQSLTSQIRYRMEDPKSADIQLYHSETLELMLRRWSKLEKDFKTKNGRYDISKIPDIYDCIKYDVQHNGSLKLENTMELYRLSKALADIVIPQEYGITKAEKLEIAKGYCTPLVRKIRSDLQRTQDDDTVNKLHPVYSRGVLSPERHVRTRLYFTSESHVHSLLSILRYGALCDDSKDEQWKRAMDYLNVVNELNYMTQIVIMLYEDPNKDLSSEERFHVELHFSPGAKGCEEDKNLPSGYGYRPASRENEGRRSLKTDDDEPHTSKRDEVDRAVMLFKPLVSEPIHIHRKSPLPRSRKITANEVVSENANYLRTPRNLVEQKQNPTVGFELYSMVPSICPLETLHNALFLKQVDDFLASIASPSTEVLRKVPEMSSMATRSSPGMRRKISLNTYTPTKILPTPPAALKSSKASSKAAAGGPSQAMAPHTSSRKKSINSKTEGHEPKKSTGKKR", "chain of UniProt Q8IVS2 (whole entry, looked up)": "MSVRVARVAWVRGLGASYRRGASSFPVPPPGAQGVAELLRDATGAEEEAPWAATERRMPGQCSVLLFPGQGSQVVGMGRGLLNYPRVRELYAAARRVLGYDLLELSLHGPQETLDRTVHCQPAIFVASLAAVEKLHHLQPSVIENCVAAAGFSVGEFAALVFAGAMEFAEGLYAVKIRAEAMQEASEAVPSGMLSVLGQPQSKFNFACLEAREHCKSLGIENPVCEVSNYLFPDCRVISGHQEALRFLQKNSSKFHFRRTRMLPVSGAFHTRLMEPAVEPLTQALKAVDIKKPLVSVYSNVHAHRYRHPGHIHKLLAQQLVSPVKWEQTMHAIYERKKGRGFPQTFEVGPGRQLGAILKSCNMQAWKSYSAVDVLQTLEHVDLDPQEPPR", "chain of UniProt P09368 (whole entry, unmodified, looked up)": "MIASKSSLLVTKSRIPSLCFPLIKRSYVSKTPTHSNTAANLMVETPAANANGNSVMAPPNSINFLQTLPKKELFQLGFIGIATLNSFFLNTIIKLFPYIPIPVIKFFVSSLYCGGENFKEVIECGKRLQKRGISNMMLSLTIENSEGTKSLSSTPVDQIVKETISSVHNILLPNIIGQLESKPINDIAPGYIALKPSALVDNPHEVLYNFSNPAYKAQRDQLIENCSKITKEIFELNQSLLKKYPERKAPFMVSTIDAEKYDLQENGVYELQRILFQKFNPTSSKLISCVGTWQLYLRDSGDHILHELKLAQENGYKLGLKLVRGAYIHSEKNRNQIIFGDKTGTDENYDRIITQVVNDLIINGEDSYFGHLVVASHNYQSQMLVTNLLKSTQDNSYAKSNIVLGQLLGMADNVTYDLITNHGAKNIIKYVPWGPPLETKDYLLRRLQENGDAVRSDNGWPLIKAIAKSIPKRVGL", "chain of UniProt Q04049 (whole entry, looked up)": "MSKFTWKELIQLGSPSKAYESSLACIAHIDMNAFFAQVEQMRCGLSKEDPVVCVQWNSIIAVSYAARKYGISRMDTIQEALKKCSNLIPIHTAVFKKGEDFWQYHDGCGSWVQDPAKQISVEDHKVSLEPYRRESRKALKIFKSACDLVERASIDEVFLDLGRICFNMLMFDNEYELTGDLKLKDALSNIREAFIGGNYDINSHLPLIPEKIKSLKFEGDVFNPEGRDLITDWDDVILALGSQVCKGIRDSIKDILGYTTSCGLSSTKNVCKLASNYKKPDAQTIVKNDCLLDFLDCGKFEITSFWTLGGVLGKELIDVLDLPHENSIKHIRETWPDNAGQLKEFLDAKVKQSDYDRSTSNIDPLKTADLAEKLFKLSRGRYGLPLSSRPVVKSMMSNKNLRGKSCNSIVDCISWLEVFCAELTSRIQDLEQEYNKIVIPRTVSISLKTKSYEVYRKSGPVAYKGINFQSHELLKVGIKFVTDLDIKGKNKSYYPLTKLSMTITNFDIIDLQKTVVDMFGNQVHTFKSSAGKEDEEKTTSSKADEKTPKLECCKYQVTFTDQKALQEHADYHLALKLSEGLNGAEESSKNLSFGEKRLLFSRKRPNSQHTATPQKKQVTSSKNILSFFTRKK"}
{"Substance": "Ppip5k2 (Mus musculus, UniProt Q6ZQB6)", "substrate": "O=P(O)(O)O[C@@H]1[C@@H](OP(=O)(O)O)[C@H](OP(=O)(O)OP(=O)(O)O)[C@@H](OP(=O)(O)O)[C@H](OP(=O)(O)OP(=O)(O)O)[C@@H]1OP(=O)(O)O", "conditions": "pH 5, 37 °C", "kcat": "0.095 s⁻¹"}
{"Substance": "B1 (protein)", "substrate": "O=C(/C=C/c1ccc(O)cc1)c1ccc(O)cc1O", "kcat": "0.375 ± 0.0367 s⁻¹"}
{"Substance": "PUT1 del N-terminal 18 (Saccharomyces cerevisiae, UniProt P09368)", "substrate": "COC1=C(OC)C(=O)C(CC=C(C)C)=C(C)C1=O", "conditions": "pH 8, 25 °C, ping-pong, together with: proline 300 mM, electron acceptor", "kcat": "9.6 ± 0.5 s⁻¹"}
{"Substance": "protein (Enterobacter lignolyticus, UniProt E3G9I4)", "substrate": "CCn1c(=NN=c2sc3cc(S(=O)(=O)O)ccc3n2CC)sc2cc(S(=O)(=O)O)ccc21", "conditions": "pH 3.5, 25 °C, together with: H2O2", "kcat": "3540 ± 10 s⁻¹"}
{"Substance": "B2 (TcC)", "substrate": "O=c1[nH]c(=O)c2[nH]cnc2[nH]1", "conditions": "pH 8.3, 37 °C, apparent, together with: PRPP 1 mM, MgCl2 12 mM", "kcat": "0.008 ± 0.0002 s⁻¹"}
{"Substance": "MCAT (Homo sapiens, UniProt Q8IVS2)", "substrate": "CC(C)(COP(=O)(O)OP(=O)(O)OC[C@H]1O[C@@H](n2cnc3c(N)ncnc32)[C@H](O)[C@@H]1OP(=O)(O)O)[C@@H](O)C(=O)NCCC(=O)NCCSC(=O)CC(=O)O", "conditions": "pH 6.8, 20 °C, labelled substrate, together with: holo-ACP 20 µM", "kcat": "1.08 ± 0.102 s⁻¹"}
{"Substance": "B3 (sacB Y247F)", "substrate": "OC[C@H]1O[C@@](CO)(O[C@H]2O[C@H](CO)[C@@H](O)[C@H](O)[C@H]2O)[C@@H](O)[C@@H]1O", "conditions": "pH 6.9", "kcat": "254 ± 3.5 s⁻¹"}
{"Substance": "B4 (enzyme G29Y)", "substrate": "NC(=O)c1ccc[n+](CCO)c1", "conditions": "pH 8, 25 °C", "kcat": "0.103 ± 0.00967 s⁻¹"}
{"Substance": "B5 (mtnK)", "substrate": "Nc1ncnc2c1ncn2[C@@H]1O[C@H](COP(=O)(O)OP(=O)(O)OP(=O)(O)O)[C@@H](O)[C@H]1O", "conditions": "pH 7.8, 30 °C, together with: 5-deoxyribose", "kcat": "14.1 s⁻¹"}
{"Substance": "B6 (GTPBP3 P257H)", "substrate": "Nc1nc2c(ncn2[C@@H]2O[C@H](COP(=O)(O)OP(=O)(O)OP(=O)(O)O)[C@@H](O)[C@H]2O)c(=O)[nH]1", "conditions": "pH 8, 37 °C, KCl 300 mM", "kcat": "0.00817 ± 0.00117 s⁻¹"}
{"Substance": "B7 (enzyme)", "substrate": "O=P(O)(O)OC[C@H](O)CO", "conditions": "pH 8, 37 °C, apparent", "kcat": "1.51 s⁻¹"}
{"Substance": "B8 (ycjS)", "substrate": "CO[C@H]1O[C@H](CO)[C@@H](O)C(=O)[C@H]1O", "conditions": "pH 7, 30 °C, together with: NADH 0.3 mM", "kcat": "22 ± 0.8 s⁻¹"}
{"Substance": "B9 (putA E1012A)", "substrate": "O=C(O)[C@@H]1CCCN1", "conditions": "pH 8, 23 °C", "kcat": "19.8 ± 0.7 s⁻¹"}
{"Substance": "RAD30 (Saccharomyces cerevisiae, UniProt Q04049)", "substrate": "Cc1cn([C@H]2C[C@H](O)[C@@H](COP(=O)(O)OP(=O)(O)OP(=O)(O)O)O2)c(=O)[nH]c1=O", "conditions": "pH 7.5, room temperature, apparent Km, apparent, together with: dG 10 nM primer-template", "kcat": "0.00145 ± 0.000167 s⁻¹"}
{"Substance": "speG (Vibrio cholerae, UniProt Q9KL03)", "substrate": "NCCCNCCCCNCCCN", "conditions": "pH 9, 37 °C", "kcat": "38.9 s⁻¹"}
{"Substance": "B10 (ASRGL1)", "substrate": "N[C@@H](CC(=O)N[C@@H](Cc1ccccc1)C(=O)O)C(=O)O", "conditions": "pH 7.4, 37 °C, NaCl 100 mM", "kcat": "3 ± 0.1 s⁻¹"}
{"note": "For quick reference, copied from above:"}
{"Substance": "B5 (mtnK)", "substrate": "Nc1ncnc2c1ncn2[C@@H]1O[C@H](COP(=O)(O)OP(=O)(O)OP(=O)(O)O)[C@@H](O)[C@H]1O", "conditions": "pH 7.8, 30 °C, together with: 5-deoxyribose", "kcat": "14.1 s⁻¹"}
